Results of several laboratories.
± marks the error that the study gave.

Structure (SMILES) = COCCOc1cnc2ccn([C@H](C)c3nnc4c(F)cc(-c5cnn(C)c5)cn34)c(=O)c2c1; test system = human patients; conditions = oral; endpoint = maximum tolerated dose; value = 300 mg once daily
Structure (SMILES) = CC(=O)c1c(C)c2cnc(Nc3ccc(C4CCN(CCS(C)(=O)=O)CC4)cn3)nc2n(C2CCCC2)c1=O; test system = human patients, plasma; conditions = oral, 100 mg twice daily, day 1 single dose, added: fulvestrant; endpoint = AUC(0-inf); value = 929 ng·h/mL
Structure (SMILES) = CC(C)C(=O)OC[C@H]1O[C@@H](n2ccc(NO)nc2=O)[C@H](O)[C@@H]1O; test system = rat amniotic fluid dialysate; conditions = 5 ng/mL, low concentration, three cycles, added: NHC 25 ng/mL; endpoint = freeze-thaw stability; value = 100 ± 2.57%
Structure (SMILES) = O=S(=O)(CC1CS1)c1ccc(Oc2ccccc2)cc1 (racemic); assay = NMR; test system = methanol; conditions = one month, room temperature, added: NaOAc, Zn(OAc)2; endpoint = unreacted compound; value = 40%
Structure (SMILES) = C[C@]1(O)C[C@@](N)(c2ccc(-c3nc4n(c3-c3ccccc3)COc3ccncc3-4)cc2)C1; test system = human, advanced or metastatic solid tumours; conditions = intermittent, dose escalation total; endpoint = patients with grade ≥3 Stomatitis TEAE; value = 28.6%
Structure (SMILES) = O=C(O)CNCP(=O)(O)O; assay = ultrafiltration; test system = cow milk whey; conditions = 200 nM nominal in whole milk; endpoint = dose fraction in permeate; value = 57.9%
Structure (SMILES) = O[C@H]1CCCN[C@@H]1CCCn1cnc2c(Cl)c(Cl)ccc21; test system = healthy humans, plasma; conditions = oral, 150 mg single dose; endpoint = median Tmax; value = 4 h
Structure (SMILES) = Cn1cccc1-c1cccnc1; test system = rat; conditions = intravenous, 1.0 mg/kg, given alone; endpoint = elimination rate constant; value = 1.34 h⁻¹
Structure (SMILES) = COc1cc2c(Oc3ccc4[nH]c(C)cc4c3F)ccnc2cc1OCC1(N)CC1; test system = paediatric recurrent refractory sarcoma; conditions = 12 mg; endpoint = grade 3 Hypertension; value = 0%
Structure (SMILES) = Clc1ccc(-c2ccccc2)cc1; test system = Sprague-Dawley rat, female, serum; conditions = inhalation, 35 µg/rat, 24 h; endpoint = alkaline phosphatase; value = 130 ± 33 U/L
Structure (SMILES) = C[C@@H](NC(=O)N1C(=O)[C@H](Cc2ccnc(N)c2)[C@H]1C(=O)O)C1CCCCC1; test system = healthy Chinese adult volunteers; conditions = continuous intravenous infusion, dose not given, 5.0 days, all doses pooled; endpoint = subjects with abnormal liver function; value = 10%
Structure (SMILES) = COc1ncnn2ccc(-c3cnc4nc(C)n(Cc5nnc([C@@H](C)F)o5)c4c3)c12; test system = human patients; conditions = oral, dose not given; endpoint = incidence of creatinine increased (all grades); value = 14.3%
Structure (SMILES) = COc1ccc(-c2c(-c3ccc(C#N)c(F)c3)nc(N3CCC(N)CC3)n(C)c2=O)cc1F; assay = item: Nausea; test system = relapsed/refractory marginal zone lymphoma patients; conditions = oral, 60 mg, grade 3 to 4, dose expansion; endpoint = treatment-related adverse event incidence; value = 0%

For quick reference, copied from above:
Structure (SMILES) = O[C@H]1CCCN[C@@H]1CCCn1cnc2c(Cl)c(Cl)ccc21; test system = healthy humans, plasma; conditions = oral, 150 mg single dose; endpoint = median Tmax; value = 4 h
